Measured values from different studies.
Each line is one published result; not all experiments were run side by side. ± gives the spread as reported.

SMILES	cell line	effect on	method	sample	time	setting	IC50
N.N.[Cl][Pt][Cl]	MCF-10A	cell viability	–	–	48 h	light irradiation 2.5 min	35.6 ± 2.16 µM
CC[C@H](C)[C@H](NC(=O)[C@H](CCCCN)NC(=O)[C@@H](NC(=O)[C@H](CCCNC(=N)N)NC(=O)[C@@H](NC(=O)[C@@H](CCCNC(=N)N)NC(=O)[C@@H](CCCNC(=N)N)NC(=O)[C@@H](CCCNC(=N)N)NC(=O)[C@@H](CCCNC(=N)N)NC(=O)[C@@H](CCCNC(=N)N)NC(=O)[C@H](N)CCCNC(=N)N)[C@@H](C)O)[C@@H](C)O)C(=O)N[C@@H](CC(=O)O)C(=O)N[C@@H](Cc1c[nH]c2ccccc12)C(=O)NC(C)(C)C(=O)N[C@@H](CCCCN)C(=O)N[C@H](C(=O)N[C@@H](CC(C)C)C(=O)NC(C)(C)C(=O)N[C@@H](CCCCN)C(=O)NCCCCCC(=O)NCCCC[C@H](NC(=O)CCCCCNC(=O)[C@H](CCCCN)NC(=O)C(C)(C)NC(=O)[C@H](CC(C)C)NC(=O)[C@@H](NC(=O)[C@H](CCCCN)NC(=O)C(C)(C)NC(=O)[C@H](Cc1c[nH]c2ccccc12)NC(=O)[C@H](CC(=O)O)NC(=O)[C@@H](NC(=O)[C@H](CCCCN)NC(=O)[C@@H](NC(=O)[C@H](CCCNC(=N)N)NC(=O)[C@@H](NC(=O)[C@@H](CCCNC(=N)N)NC(=O)[C@@H](CCCNC(=N)N)NC(=O)[C@@H](CCCNC(=N)N)NC(=O)[C@@H](CCCNC(=N)N)NC(=O)[C@@H](CCCNC(=N)N)NC(=O)[C@H](N)CCCNC(=N)N)[C@@H](C)O)[C@@H](C)O)[C@@H](C)CC)[C@@H](C)CC)C(N)=O)[C@@H](C)CC	SK-MEL-5	–	–	–	–	–	~5 µM
N.N.[Cl][Pt][Cl]	SGC-7901 resistant to compound	viability	CCK-8	–	–	glutamine deficient	20.8 µM
O=C(Oc1ccc(F)cc1)[c-]1cccc1.[Fe+2].c1cc[cH-]c1	MCF-10A	cell growth	MTT	–	72 h	–	no effect
Fc1ccc2c(-c3nc(Cc4ccccc4)cs3)nn(Cc3ccc(Cl)cc3Cl)c2c1	BJ fibroblasts	cytotoxicity	–	–	48 h	–	289 µM
N.N.[Cl][Pt][Cl]	NAMALWA	cell proliferation	CellTiter-Glo	–	72 h	–	0.29 µM
Cc1cc(C)c(N2CCN(c3c(C)cc(C)cc3C)C2=[Se])c(C)c1	H157 lung carcinoma cells	cell viability	MTT	–	72 h	–	8.2 ± 0.1 µM
CN1CCN(S(=O)(=O)c2cc([N+](=O)[O-])ccc2N(CCOS(C)(=O)=O)CCOS(C)(=O)=O)CC1	6 T-ALL PDX samples	cell viability	–	ex vivo	48 h	–	0.0286 µM
C[C@H]1COCCN1c1nc(NCc2cccnc2C(F)(F)F)c2cccnc2n1	cardiomyocytes	calcium signalling	–	–	–	in vitro toxicology	> 100 µM
Cc1cc(N(CCOS(C)(=O)=O)CCOS(C)(=O)=O)ccc1C(=O)O	SN12K1	cell growth	–	–	–	–	19.7 µg/mL
c1ccc([Se][Au]=[c]2n(C3CCCCC3)ccn2C2CCCCC2)cc1	Vero E6	cytotoxicity	crystal violet	–	–	–	2 µM
COc1c(C)c2c(c(O)c1C/C=C(\C)CCC(=O)O)C(=O)OC2	PANC-1	cell proliferation	–	pancreas cancer	–	–	2.63 µM
[Se]=c1n(C2CCCCC2)ccn1C1CCCCC1	H157 lung carcinoma cells	cell viability	MTT	–	72 h	–	9.8 µM

For quick reference, copied from above:
SMILES	cell line	effect on	method	sample	time	setting	IC50
COc1c(C)c2c(c(O)c1C/C=C(\C)CCC(=O)O)C(=O)OC2	PANC-1	cell proliferation	–	pancreas cancer	–	–	2.63 µM
[Se]=c1n(C2CCCCC2)ccn1C1CCCCC1	H157 lung carcinoma cells	cell viability	MTT	–	72 h	–	9.8 µM
